Measured values gathered from unrelated publications.
Numbered parts are unrelated; each lists some results of a single study. “And” joins repeats or separate records; there may be more than shown.
Sequence of UniProt Q9NQU5 (whole entry, looked up): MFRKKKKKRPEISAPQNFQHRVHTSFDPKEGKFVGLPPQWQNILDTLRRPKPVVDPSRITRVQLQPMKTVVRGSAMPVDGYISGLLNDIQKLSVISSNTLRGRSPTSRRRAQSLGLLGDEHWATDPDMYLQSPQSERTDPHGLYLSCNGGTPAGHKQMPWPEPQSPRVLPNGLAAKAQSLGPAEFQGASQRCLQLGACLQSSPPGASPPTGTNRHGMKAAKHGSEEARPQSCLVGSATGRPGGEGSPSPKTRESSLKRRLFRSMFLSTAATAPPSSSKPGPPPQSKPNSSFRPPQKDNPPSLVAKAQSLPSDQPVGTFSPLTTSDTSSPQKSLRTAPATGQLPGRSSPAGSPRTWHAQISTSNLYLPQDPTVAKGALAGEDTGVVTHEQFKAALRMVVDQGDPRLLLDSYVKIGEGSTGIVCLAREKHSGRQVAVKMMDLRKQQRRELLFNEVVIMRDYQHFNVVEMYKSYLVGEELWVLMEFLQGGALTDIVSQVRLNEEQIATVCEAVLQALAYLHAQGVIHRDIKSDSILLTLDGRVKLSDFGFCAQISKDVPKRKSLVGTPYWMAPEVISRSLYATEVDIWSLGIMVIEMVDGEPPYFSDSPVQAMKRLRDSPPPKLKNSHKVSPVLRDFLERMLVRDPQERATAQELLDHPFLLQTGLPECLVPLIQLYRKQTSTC

Series 1 — technique: RNA Bind-n-Seq; molecule type: RNA; medium: in vitro; tested at: not given; setting: RNA with constant flanks, ends assumed; baseline: input RNA pool; direction: higher = stronger binding; measurement: bound/input enrichment
Target: RING finger protein unkempt homolog, zinc fingers 1-6, GST-SBP tag (UNK, Homo sapiens, UniProt Q9C0B0, residues 30-357)
Residues (chain): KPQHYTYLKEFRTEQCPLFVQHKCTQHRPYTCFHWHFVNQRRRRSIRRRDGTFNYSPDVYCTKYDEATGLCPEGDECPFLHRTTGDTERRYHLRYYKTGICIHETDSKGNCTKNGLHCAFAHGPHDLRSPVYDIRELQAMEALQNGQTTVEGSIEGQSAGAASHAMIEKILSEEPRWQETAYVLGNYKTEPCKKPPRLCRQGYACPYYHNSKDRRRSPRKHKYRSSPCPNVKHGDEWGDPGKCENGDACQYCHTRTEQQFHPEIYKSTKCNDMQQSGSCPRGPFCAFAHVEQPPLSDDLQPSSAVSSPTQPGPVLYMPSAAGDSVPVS
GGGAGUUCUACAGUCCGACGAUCGAUGCAGUUAAGGAAGAAAAUCUGAAGCUAAAGUCGGAAAAUCAAGUUCUCGGACAAUAUACCGAAAACCUCAUGUCUGCUUCUAGUGUUUUUCAAACAACUGAUACAAAAAGCAAAAGGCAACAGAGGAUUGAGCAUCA: 0.128 ratio
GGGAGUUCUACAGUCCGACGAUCUUGCUUUUCACAUCCAUUUCCCCUCCUUCCCAUGGGCAGAGGACCAGGCUGUAGGAAAUCCCGUUAUUUACAGGAACUUCAUCAUAAUUUGGAGGGAAGCUCUUGGAGCUGUGAGUUCUCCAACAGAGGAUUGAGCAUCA: 0.511 ratio
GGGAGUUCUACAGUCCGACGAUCUCUAUUGCUACAAGAGAGGGAGUUACCGUUUUGUAUUCUAAACUGAUCAGCAAUAAGGAAGCCGUACCUUUGCCUCAACAGGUUUUAUGCCUCAAAGGACCACAGUUGCCUGAUUUUGAACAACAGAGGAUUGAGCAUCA: 0.13 ratio
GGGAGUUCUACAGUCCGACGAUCACUAUCUGAAGAUUUCCAUUUGUCAAAAAGUAAUGAUUUCUUGAUAAUUGUGUAGUAAUGUUUUUCCGAACCCAGCAGUUACCUUAAAGCUGAAUUUAUAUUUAGUAACUUCUGUGUUAACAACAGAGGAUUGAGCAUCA: 0.582 ratio
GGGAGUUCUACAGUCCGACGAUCUUGGUUGUGACUUCUCUGUGUAAGUCAUCUUCUACGCCAGCUUCCCAGAACAACCUGCGGCACCCGGUCCCACCUUCGCACAACCGGUGUGAUUGACAUGAGUUCACCAGACCAGCAGGCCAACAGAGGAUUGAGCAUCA: 0.101 ratio
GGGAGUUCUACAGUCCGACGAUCUUUGCAAAUUAUAUUGCCAGAGACACACGUCGUCUUGGUGCAACAAUACUAGACCGUAUACACCGUCUUCAAAUUAAUAGCAGUUUGAGCACCUACUCUCUCGUAGACUCUGUUGGAAAUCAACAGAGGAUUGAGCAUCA: 0.627 ratio
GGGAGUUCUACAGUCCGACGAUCCAUGACAGCAACACUGAUAUGUUUCAGAUUGGUCGGUCAACUGAAAGUCCUAUUGAUUUUGCCGUAACUGACACCGUUCCUGGAAGUCAGAGUAAUUCCGACACGCAGUCAGUACAAAGCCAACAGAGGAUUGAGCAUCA: 0.0666 ratio
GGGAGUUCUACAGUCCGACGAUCUUGGAAGUGUAUCCUCCCUUCUUAUUUUUUCUAGCUGUUGGAGGUGUUUACCACCCGCGUACCGCUUCUGGCCUGGGCUUGGCCUGGAUUGUUGGACGAGUUCUUUAUGCUUAUGGCUAUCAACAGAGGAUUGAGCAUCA: 0.615 ratio

Series 2 — technique: Spec-seq; molecule type: double-stranded DNA, one strand shown; medium: in vitro; tested at: not given; setting: whole probe, mean of replicates; baseline: not given; direction: lower = stronger binding; measurement: relative binding energy; shared flanks, not repeated: GAGTCGTCTCGTCAGCAC … CCGTAGAGCACTCAGGTC
Target: POU, POU domain (Salpingoeca helianthica)
Target sequence (chain): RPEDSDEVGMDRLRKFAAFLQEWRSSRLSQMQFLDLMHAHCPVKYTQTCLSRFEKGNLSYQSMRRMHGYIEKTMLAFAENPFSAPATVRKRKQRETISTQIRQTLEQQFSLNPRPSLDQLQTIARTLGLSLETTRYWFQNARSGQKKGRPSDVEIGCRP
TTTCTAAT: 0.523 ln ratio
ATGCCAGC: 1.38 ln ratio
ATGCCAAG: 1.09 ln ratio
GCGTTAAT: -0.151 ln ratio
ATGCCCCG: 1.3 ln ratio
AGCGTAAT: 0.682 ln ratio
ATGCGGAC: 1.37 ln ratio
ATGCCGAA: 1.11 ln ratio

Further values, each from its own experiment
C[C@H](NC(=O)c1cnc2n1[C@](C)(Cc1ccc(C#N)cc1)C(=O)N2c1cc(Cl)c(F)c(Cl)c1)C(=O)NC1(c2ccccn2)CC1  remaining binding (PAK6 (Homo sapiens, UniProt Q9NQU5); cell-free assay, competition with immobilised ligand; 1 µM): 96%
PhoQ, residues 284 288 289 292 302 303 NLMGRA  fold induction (PhoP, residues 12 14 15 18 19 LWHCS (Escherichia coli, UniProt P23836); Sort-seq, refers to: YFP reporter; E. coli; PhoQ-PhoP variant library, added: 10 µM Mg2+; baseline: high Mg2+ state, higher = stronger signaling): 23.5 and 9.71

Some of these lines once more (series 2):
ATGCCCCG: 1.3 ln ratio
ATGCCAAG: 1.09 ln ratio
